Experimental data pooled from the literature.
Parts stem from different laboratories: compare values within a part only.

Study 1 — technique: protein binding microarray; form: double-stranded DNA, one strand shown; medium: in vitro; concentration: not given; baseline: not given; direction: higher = stronger binding
Target: Histone acetyltransferase KAT6A, both winged helices, GST fusion (KAT6A, Homo sapiens, UniProt Q92794, residues 1-181)
Setting: 8-mer, flanks averaged, mean of 2 arrays, mostly near background
Residues (chain): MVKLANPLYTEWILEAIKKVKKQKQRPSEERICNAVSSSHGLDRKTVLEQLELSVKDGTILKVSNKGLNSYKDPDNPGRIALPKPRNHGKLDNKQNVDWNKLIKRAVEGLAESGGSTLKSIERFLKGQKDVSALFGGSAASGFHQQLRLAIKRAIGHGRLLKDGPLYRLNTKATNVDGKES
`CAGAGACA` gave an E-score of -0.0964.
With `AATCGGAT` the E-score was 0.0942.
The E-score of `ATAGGCGC` is reported as 0.173.
For `ATAGGAAG`, the E-score was -0.0458.
For `GATCACAC`, the E-score was -0.0737.
`ATAAGGAG` has an E-score of -0.0412.
The E-score of `GCTGTTCA` is reported as -0.0872.
With `CCAGCGGG` the E-score was 0.244.
`CCACAACG` has an E-score of 0.105.
`AGCAGTGC` gave an E-score of -0.0587.
The E-score of `ACACGTTG` is reported as -0.054.

Study 2 — technique: protein-binding microarray; form: double-stranded DNA, one strand shown; medium: in vitro; concentration: not given; direction: higher = stronger binding
Target: Transcriptional repressor CTCF (CTCF, Homo sapiens, UniProt P49711, residues 1-727, full length assumed)
Setting: k-mer, scored over probes, only values ≥0.25
Residues (chain): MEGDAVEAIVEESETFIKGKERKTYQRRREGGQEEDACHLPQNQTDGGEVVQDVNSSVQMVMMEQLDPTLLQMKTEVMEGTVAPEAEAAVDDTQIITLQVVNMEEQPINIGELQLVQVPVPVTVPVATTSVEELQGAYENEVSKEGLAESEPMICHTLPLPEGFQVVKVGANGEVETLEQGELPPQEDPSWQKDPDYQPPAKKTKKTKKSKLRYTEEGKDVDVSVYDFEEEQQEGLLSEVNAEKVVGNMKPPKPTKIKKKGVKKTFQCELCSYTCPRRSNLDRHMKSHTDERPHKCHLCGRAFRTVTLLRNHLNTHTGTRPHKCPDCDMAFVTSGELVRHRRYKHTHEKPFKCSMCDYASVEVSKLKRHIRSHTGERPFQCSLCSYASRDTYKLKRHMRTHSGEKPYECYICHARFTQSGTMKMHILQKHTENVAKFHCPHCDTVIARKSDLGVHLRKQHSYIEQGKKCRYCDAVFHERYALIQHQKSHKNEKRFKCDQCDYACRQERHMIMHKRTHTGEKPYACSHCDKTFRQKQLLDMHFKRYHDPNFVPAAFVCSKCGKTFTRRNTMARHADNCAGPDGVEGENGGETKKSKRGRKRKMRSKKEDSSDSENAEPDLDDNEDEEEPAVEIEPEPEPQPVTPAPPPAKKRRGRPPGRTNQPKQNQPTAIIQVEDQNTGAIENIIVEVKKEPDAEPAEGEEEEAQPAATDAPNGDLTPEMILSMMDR
For `GCCCCCTA`, the E-score was 0.43.
With `ACAATATA` the E-score was 0.339.
For `GATAAAAC`, the E-score was 0.273.
With `ATTAGTCC` the E-score was 0.26.
For `ATGTTAAC`, the E-score was 0.281.
With `AGAGTTAA` the E-score was 0.264.
`AATATATA` has an E-score of 0.321.
`AGAAACAT` has an E-score of 0.283.
With `AGTAACAA` the E-score was 0.278.

Study 3 — technique: universal PBM; form: double-stranded DNA, one strand shown; medium: in vitro; concentration: not given; direction: higher = stronger binding
Target: Sal-like protein 4, full length isoform B (SALL4, Homo sapiens, UniProt Q9UJQ4-2, residues 1-616)
Setting: 8-mer, flanks averaged, mean of replicates
The E-score of `AGTCCAAC` is reported as -0.213.
For `TCCCCACA`, the E-score was -0.0984.
`TCGAAGCA` gave an E-score of -0.00747.
The E-score of `AGTTAGAA` is reported as 0.0484.
For `CGCGTTCA`, the E-score was -0.0551.
`CTAGCCGC` has an E-score of -0.317.

Mixed results
`PhoQ, residues 284 288 289 292 302 303 STVVAA` has a fold induction of 23.9 (PhoP, residues 12 14 15 18 19 LHHSG (Escherichia coli, UniProt P23836); Sort-seq, refers to: YFP reporter; E. coli; PhoQ-PhoP variant library, together with: 10 µM Mg2+; baseline: high Mg2+ state, higher = stronger signaling).

Repeated from above (study 1):
For `GATCACAC`, the E-score was -0.0737.
`ATAAGGAG` has an E-score of -0.0412.
The E-score of `GCTGTTCA` is reported as -0.0872.
